Assay results collected from several papers.
Numbered parts are unrelated; each lists some results of a single study.
UniProt P35348, sequence (whole entry, looked up): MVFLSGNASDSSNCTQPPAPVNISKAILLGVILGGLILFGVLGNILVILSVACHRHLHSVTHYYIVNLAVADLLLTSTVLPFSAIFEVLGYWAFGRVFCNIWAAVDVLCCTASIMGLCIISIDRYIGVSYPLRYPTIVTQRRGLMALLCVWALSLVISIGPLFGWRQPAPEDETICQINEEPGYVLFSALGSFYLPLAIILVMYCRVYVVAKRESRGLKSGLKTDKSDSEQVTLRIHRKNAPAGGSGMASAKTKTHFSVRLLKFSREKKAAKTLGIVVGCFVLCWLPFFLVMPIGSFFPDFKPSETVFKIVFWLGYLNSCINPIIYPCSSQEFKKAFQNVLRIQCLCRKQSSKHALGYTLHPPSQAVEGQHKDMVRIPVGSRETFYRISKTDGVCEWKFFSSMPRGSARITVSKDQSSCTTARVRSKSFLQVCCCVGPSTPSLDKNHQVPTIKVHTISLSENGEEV
UniProt P42681, sequence (whole entry, looked up): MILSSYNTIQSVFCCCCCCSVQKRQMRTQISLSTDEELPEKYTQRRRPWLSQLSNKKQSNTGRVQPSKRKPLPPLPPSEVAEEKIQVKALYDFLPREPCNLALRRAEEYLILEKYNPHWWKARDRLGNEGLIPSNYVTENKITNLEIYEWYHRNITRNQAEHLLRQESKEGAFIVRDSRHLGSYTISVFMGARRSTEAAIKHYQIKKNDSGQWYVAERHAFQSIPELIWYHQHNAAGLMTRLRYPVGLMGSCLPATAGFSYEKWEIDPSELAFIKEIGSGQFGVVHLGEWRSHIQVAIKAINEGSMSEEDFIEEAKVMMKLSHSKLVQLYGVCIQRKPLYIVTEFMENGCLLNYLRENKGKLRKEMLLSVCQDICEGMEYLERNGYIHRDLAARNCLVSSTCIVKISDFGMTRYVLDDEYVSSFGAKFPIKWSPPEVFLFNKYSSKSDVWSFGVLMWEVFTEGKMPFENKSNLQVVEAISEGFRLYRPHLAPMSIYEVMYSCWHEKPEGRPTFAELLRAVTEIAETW
UniProt P08913, sequence (whole entry, looked up): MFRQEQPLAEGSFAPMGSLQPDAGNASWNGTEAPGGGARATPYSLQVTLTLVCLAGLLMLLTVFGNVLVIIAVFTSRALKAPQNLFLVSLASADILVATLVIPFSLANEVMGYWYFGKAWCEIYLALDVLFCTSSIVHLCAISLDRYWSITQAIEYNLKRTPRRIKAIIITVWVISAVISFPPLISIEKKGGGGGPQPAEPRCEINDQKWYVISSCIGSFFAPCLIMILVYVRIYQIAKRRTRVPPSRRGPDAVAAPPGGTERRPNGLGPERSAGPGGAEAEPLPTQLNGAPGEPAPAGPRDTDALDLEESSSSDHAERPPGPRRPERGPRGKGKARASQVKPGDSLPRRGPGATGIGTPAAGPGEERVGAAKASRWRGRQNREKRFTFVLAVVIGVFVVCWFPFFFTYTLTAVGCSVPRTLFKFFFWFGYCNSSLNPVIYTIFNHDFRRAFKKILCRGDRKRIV
UniProt P25021, sequence (whole entry, looked up): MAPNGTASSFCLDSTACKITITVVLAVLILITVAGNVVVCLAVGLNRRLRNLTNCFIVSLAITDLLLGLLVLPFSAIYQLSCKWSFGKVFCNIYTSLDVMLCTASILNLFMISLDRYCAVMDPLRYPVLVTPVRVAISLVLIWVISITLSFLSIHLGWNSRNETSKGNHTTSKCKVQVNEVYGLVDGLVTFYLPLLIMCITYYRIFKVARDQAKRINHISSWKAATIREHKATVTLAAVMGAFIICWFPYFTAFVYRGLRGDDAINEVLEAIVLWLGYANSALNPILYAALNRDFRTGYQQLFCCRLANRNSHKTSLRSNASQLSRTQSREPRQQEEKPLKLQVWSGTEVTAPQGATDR
UniProt P53671, sequence (whole entry, looked up): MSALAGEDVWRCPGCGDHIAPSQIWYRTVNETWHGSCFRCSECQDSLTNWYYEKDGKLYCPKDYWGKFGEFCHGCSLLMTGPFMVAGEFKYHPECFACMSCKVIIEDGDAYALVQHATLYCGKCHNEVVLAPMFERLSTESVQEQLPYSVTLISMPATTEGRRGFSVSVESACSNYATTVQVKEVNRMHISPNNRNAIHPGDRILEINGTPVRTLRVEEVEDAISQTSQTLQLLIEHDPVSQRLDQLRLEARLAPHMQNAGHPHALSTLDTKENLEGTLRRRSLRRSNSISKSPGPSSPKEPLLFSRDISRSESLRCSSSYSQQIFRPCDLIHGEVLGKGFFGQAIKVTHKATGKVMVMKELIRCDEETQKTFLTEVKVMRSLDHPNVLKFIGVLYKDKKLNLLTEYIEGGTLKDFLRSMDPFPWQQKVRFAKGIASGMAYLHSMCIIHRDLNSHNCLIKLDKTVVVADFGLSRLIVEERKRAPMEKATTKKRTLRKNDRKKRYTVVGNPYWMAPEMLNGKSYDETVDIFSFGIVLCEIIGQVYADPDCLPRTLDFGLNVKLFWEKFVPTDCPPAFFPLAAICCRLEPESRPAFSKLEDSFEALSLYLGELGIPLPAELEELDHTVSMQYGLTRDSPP
UniProt Q13177, sequence (whole entry, looked up): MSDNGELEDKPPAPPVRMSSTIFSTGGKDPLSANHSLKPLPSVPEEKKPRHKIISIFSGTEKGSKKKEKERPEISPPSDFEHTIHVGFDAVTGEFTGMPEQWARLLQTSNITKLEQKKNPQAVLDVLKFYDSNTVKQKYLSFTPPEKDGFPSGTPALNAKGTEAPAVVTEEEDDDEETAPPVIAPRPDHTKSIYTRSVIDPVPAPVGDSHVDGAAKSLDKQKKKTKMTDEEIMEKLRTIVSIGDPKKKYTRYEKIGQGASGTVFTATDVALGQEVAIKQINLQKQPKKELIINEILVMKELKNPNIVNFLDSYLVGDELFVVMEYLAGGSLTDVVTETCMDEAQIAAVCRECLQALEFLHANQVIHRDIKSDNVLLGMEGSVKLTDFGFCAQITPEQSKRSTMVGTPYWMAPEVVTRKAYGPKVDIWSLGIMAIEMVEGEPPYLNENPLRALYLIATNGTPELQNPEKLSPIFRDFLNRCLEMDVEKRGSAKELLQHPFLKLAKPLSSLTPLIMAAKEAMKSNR
UniProt P08172, sequence (whole entry, looked up): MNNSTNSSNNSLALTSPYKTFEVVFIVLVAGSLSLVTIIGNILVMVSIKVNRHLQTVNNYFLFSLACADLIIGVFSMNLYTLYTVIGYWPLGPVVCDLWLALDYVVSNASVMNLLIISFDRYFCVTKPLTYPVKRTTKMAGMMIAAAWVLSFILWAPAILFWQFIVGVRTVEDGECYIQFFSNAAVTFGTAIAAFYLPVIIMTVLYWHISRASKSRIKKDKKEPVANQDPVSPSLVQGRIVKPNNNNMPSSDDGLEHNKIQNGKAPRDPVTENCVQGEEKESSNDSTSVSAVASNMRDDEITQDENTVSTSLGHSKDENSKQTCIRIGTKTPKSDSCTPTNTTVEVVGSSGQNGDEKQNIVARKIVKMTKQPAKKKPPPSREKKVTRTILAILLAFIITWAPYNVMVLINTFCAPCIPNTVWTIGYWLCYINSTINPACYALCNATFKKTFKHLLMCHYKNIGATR
UniProt P18825, sequence (whole entry, looked up): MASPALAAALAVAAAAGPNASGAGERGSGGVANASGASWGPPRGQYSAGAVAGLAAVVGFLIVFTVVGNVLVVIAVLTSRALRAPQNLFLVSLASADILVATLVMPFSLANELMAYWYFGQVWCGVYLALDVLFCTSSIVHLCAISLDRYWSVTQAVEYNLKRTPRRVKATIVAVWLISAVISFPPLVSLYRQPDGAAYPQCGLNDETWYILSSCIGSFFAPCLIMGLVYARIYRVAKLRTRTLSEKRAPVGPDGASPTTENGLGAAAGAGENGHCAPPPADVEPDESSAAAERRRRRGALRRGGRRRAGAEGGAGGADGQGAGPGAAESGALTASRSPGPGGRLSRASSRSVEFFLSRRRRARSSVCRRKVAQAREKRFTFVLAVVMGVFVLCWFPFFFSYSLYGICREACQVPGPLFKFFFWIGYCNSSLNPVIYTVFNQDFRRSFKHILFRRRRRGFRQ
UniProt P35462, sequence (whole entry, looked up): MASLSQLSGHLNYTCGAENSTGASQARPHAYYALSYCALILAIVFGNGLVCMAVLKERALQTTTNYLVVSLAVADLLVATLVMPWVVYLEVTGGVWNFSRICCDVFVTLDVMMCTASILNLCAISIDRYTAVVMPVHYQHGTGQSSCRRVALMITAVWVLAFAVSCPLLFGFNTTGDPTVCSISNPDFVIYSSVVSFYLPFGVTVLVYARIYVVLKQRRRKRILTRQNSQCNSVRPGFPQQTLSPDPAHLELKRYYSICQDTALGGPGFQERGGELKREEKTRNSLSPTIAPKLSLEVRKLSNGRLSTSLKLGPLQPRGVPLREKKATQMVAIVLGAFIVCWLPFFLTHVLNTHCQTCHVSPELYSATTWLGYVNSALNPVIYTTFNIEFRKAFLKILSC

Series 1
Structure (SMILES): O=C(Nc1cnn(-c2csc(C(=O)NC3COC3)c2)c1)Nc1c(F)cccc1Cl
Read-out: enzyme activity
Tested at: 5 µM
target	mode	relative to	remaining activity [%]
STK24 (Homo sapiens, UniProt Q9Y6E0)		untreated control	81.2
SBK1 (Homo sapiens, UniProt Q52WX2)		untreated control	95.7
LIM domain kinase 2 (LIMK2, Homo sapiens, UniProt P53671)		untreated control	93.1
EPHB2 (Homo sapiens, UniProt P29323)		untreated control	98.3
DAPK3 (Homo sapiens, UniProt O43293)		untreated control	100
TXK (Homo sapiens, UniProt P42681)		untreated control	90.2
BMPR1B (Homo sapiens, UniProt O00238)		untreated control	111
PAK2 (Homo sapiens, UniProt Q13177)		untreated control	92.2
RIPK3 (Homo sapiens, UniProt Q9Y572)	inhibitor		97.5
PRKCQ (Homo sapiens, UniProt Q04759)		untreated control	92.2
PDGFRA (Homo sapiens, UniProt P16234)		untreated control	106

Series 2
Species: human
Medium: microsomes or S9
Tested at: 2 µM
Time: 0.5 h
Structure (SMILES)	remaining compound [%]
Cc1ccc2c(c1)NC(=O)c1cc(S(=O)(=O)N(C)C)c(Oc3ccccc3Br)cc1O2	0.777
Cc1nc(S(=O)(=O)Nc2cnc3ccnn3c2)cn1C	> 100
O=c1c(-c2nc3ccccc3nc2O)c[nH]n1-c1ccccc1	44.6
Cc1ccc(NC(=O)Cn2nc3c(N4CC(C)CC(C)C4)nccn3c2=O)c(Cl)c1 (stereo not drawn)	6.4
CCC(CC)C(=O)N(Cc1ccccc1)Cc1nc(N(C)C)ncc1-c1ccccn1	0.566
Cc1ccc2c(c1)c(=O)n(C)c1nnc(CNC(C)c3ncc(C)s3)n21 (stereo not drawn)	92.2
Cc1ccc(Cl)cc1N1CCN(C(=O)C2CCCN(S(=O)(=O)c3ccccc3)C2)CC1 (stereo not drawn)	29.9
O=C(Nc1cccc2c1N(c1ncccn1)CC2)c1ccccc1	1.34
Oc1cc(-c2cccc(-c3ccc4c(c3)OCO4)c2)nn1-c1ccccn1	20.4
COc1cc(=O)n(C)cc1C(=O)N1CCN(S(=O)(=O)C2CC2)CC1	90
c1cc2c(cc1OCc1cn(CC3CCCNC3)nn1)CCC2 (stereo not drawn)	96.9

Series 3
Target: Beta-1 adrenergic receptor (ADRB1, Homo sapiens, UniProt P08588)
UniProt P08588, sequence (whole entry, looked up): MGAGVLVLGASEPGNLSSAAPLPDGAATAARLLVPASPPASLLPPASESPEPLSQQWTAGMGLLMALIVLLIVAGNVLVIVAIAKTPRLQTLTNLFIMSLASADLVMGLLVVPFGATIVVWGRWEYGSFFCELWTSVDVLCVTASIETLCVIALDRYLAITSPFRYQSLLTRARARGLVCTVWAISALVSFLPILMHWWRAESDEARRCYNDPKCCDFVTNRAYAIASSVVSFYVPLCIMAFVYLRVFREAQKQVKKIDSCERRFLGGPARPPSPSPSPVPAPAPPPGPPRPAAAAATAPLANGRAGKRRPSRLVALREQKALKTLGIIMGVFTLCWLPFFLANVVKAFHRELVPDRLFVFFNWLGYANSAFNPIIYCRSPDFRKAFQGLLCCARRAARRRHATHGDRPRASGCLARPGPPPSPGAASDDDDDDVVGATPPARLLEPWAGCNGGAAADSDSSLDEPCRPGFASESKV
Mode: antagonist
Structure (SMILES)	IC50 [µM]
Cc1noc2c(Nc3ccc(N4CCOCC4)cc3)cc(-c3cccs3)nc12	≥ 100
C#CCNC(=O)[C@@H]1Cc2cn(CC#CC)c3cccc(c23)[C@H](CC(C)C)N1	≥ 100
CCc1sc(-c2cc3ccc(O)cc3oc2=O)nc1-c1cc(C)ccc1C	≥ 100
N#Cc1cc2c(nc1N1CCC(COc3cccc(C(F)(F)F)n3)CC1)CCOC2	≥ 100
O=C(Nc1cc(F)ccc1Cl)c1cc2n(n1)CC(c1ccc(Br)cc1)OC2 (stereo not drawn)	≥ 100
CC(C(O)c1ccccc1)N(C)CCOC(c1ccccc1)c1ccccc1 (stereo not drawn)	≥ 100
COc1ccccc1N1CCC(CNC(=O)c2c[nH]c3ccccc23)C1 (stereo not drawn)	≥ 100
Cc1cccc(-c2n[nH]cc2-c2ccnc3ccccc23)n1	≥ 100
COc1ccc2c(O[C@H]3CC4C(=O)N(C)CCCCC=C[C@@H]5C[C@@]5(C(=O)N[S+](=O)([O-])C5CC5)NC(=O)[C@@H]4C3)cc(-c3nc(C(C)C)cs3)nc2c1C (stereo partly drawn)	≥ 100
COc1ccccc1C(=O)Nc1ccc([C@@H](O)[C@H]2COCC(=O)N2Cc2ccc(F)cc2)cc1	≥ 100

Series 4
SMILES: C[C@H](NC(=O)Nc1cc2[nH]ncc2c(CO)n1)c1ccccn1
Read-out: cell-free assay
Tested at: 10 µM
target	inhibition
ADRA2C (Homo sapiens, UniProt P18825)	11.5%
DRD4 (Homo sapiens, UniProt P21917)	16.6%
ADRA1A (Homo sapiens, UniProt P35348)	-8.5%
CHRM2 (Homo sapiens, UniProt P08172)	14.1%
HRH3 (Homo sapiens, UniProt Q9Y5N1)	21.1%
HTR7 (Homo sapiens, UniProt P34969)	33.4%
CHRM5 (Homo sapiens, UniProt P08912)	7.22%
HTR6 (Homo sapiens, UniProt P50406)	-12.9%
HRH4 (Homo sapiens, UniProt Q9H3N8)	41.9%
CHRM4 (Homo sapiens, UniProt P08173)	18.7%
ADRA1B (Homo sapiens, UniProt P35368)	1.42%
ADRB2 (Homo sapiens, UniProt P07550)	-12.8%
HRH2 (Homo sapiens, UniProt P25021)	3.05%
ADRA2B (Homo sapiens, UniProt P18089)	-0.465%
ADRA1D (Homo sapiens, UniProt P25100)	-7.9%
ADRB1 (Homo sapiens, UniProt P08588)	28.2%
ADRA2A (Homo sapiens, UniProt P08913)	16.8%
DRD1 (Homo sapiens, UniProt P21728)	4.28%
DRD3 (Homo sapiens, UniProt P35462)	27.9%

A few entries again (series 3):
Structure (SMILES)	IC50 [µM]
COc1ccccc1N1CCC(CNC(=O)c2c[nH]c3ccccc23)C1 (stereo not drawn)	≥ 100
Cc1cccc(-c2n[nH]cc2-c2ccnc3ccccc23)n1	≥ 100
COc1ccc2c(O[C@H]3CC4C(=O)N(C)CCCCC=C[C@@H]5C[C@@]5(C(=O)N[S+](=O)([O-])C5CC5)NC(=O)[C@@H]4C3)cc(-c3nc(C(C)C)cs3)nc2c1C (stereo partly drawn)	≥ 100
COc1ccccc1C(=O)Nc1ccc([C@@H](O)[C@H]2COCC(=O)N2Cc2ccc(F)cc2)cc1	≥ 100
